Results from different studies.
Parts stem from different laboratories: compare values within a part only.
Chain of UniProt Q5S007 (whole entry, unmodified, looked up): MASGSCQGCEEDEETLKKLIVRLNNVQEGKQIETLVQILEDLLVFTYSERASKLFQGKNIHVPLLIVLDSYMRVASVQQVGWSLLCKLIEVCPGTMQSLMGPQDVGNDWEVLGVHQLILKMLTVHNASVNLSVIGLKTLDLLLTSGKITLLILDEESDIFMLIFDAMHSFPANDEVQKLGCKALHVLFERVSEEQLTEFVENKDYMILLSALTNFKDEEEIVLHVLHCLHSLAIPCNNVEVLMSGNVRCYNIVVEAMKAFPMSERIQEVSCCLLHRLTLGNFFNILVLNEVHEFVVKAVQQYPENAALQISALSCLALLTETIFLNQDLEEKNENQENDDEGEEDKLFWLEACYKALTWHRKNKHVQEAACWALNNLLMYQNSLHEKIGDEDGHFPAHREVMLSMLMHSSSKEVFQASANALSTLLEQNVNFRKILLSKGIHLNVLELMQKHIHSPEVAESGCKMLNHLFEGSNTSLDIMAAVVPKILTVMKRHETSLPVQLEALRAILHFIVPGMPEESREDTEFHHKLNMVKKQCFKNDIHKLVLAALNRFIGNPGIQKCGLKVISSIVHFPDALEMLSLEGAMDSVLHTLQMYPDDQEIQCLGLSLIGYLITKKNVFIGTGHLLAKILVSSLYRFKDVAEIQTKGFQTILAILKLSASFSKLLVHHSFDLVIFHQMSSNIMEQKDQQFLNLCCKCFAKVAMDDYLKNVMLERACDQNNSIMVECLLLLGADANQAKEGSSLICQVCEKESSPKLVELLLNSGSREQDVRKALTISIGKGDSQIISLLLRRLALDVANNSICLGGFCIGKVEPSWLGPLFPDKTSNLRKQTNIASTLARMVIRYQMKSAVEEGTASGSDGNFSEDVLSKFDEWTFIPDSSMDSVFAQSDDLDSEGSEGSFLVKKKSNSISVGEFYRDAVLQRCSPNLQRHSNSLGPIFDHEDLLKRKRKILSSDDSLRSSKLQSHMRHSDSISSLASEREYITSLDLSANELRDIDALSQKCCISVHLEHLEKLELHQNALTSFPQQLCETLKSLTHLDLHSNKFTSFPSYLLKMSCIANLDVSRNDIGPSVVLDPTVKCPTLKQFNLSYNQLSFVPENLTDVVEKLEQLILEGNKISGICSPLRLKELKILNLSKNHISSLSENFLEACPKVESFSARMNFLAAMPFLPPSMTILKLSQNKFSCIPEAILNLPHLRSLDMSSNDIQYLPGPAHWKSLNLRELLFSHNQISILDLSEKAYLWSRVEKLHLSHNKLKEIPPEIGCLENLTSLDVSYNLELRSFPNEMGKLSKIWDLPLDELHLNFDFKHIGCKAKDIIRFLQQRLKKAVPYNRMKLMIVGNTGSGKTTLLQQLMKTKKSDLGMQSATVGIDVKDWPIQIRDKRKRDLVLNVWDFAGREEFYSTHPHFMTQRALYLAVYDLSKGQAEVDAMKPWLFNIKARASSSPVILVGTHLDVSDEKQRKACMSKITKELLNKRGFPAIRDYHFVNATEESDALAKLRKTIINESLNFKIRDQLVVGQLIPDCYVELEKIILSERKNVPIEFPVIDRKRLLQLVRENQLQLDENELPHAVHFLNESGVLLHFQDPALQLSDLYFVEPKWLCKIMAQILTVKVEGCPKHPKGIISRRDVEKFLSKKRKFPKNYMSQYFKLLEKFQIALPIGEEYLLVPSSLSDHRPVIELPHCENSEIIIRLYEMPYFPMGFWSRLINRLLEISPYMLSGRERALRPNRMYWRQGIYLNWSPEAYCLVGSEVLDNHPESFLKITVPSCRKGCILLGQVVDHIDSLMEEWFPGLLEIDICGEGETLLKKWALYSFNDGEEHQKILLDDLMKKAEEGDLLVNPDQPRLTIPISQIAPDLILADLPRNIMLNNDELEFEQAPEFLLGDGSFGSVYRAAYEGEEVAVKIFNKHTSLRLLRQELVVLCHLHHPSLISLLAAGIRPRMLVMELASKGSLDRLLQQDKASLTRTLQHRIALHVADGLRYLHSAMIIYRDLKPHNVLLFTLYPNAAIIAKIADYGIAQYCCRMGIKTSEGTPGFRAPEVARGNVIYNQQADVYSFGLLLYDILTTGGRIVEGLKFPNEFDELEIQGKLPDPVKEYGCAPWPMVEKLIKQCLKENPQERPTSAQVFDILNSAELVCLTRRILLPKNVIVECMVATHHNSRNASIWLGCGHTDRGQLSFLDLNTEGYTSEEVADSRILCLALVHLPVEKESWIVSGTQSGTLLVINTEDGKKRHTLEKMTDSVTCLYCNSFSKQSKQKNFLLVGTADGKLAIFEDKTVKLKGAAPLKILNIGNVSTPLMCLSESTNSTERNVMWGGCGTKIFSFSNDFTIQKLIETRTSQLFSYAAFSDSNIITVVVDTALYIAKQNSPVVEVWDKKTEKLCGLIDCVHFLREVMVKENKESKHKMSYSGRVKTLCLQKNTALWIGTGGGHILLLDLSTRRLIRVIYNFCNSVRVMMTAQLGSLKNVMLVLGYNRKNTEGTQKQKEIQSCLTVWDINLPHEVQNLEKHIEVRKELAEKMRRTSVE
Chain of UniProt Q07912 (whole entry, looked up): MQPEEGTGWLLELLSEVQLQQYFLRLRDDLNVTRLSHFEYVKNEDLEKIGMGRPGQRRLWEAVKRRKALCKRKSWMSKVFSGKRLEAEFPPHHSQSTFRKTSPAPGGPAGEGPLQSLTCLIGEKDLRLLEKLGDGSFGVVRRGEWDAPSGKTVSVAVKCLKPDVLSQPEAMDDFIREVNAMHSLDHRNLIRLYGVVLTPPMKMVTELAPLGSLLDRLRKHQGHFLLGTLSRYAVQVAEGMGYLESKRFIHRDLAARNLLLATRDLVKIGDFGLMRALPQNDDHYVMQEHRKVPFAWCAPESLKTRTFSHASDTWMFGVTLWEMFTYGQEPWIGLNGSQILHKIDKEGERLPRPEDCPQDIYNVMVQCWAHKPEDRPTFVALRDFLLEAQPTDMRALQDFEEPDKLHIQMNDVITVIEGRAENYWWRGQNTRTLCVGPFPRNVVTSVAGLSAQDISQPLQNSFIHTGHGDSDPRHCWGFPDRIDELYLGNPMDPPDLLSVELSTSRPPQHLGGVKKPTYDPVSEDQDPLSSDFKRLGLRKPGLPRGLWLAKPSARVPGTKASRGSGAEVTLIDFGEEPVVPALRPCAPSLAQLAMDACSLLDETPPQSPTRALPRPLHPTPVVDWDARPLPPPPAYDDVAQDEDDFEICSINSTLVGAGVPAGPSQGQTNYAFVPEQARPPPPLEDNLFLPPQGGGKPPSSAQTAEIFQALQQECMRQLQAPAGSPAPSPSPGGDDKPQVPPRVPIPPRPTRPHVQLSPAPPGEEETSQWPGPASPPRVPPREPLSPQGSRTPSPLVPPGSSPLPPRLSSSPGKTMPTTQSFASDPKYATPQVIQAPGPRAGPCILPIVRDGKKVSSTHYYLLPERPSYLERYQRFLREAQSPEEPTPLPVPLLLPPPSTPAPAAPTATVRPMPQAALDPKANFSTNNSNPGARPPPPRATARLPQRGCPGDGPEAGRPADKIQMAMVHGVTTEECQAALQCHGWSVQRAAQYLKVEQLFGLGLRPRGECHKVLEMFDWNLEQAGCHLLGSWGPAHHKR
Chain of UniProt P52564 (whole entry, looked up): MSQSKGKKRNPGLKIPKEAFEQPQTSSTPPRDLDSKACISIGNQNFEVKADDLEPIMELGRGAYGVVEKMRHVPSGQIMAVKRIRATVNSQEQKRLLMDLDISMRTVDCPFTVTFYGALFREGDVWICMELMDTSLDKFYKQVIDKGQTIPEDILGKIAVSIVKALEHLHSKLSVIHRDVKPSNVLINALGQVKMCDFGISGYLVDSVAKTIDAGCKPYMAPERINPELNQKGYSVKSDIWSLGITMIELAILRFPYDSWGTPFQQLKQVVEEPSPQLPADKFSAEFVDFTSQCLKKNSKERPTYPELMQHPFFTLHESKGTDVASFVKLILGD

Block 1 — organism: Sarcocystis neurona; effect on: parasite growth; tested at: 10 µM; time: 96 h; notes: first screen; reference: untreated
SMILES	log2 fold change
COC1=C(OC)C(=O)C(CCCCCCCCCCO)=C(C)C1=O	0.37
C=C1/C(=C\C=C2/CCC[C@]3(C)[C@@H]([C@H](C)/C=C/[C@@H](O)C4CC4)CC[C@@H]23)C[C@@H](O)C[C@@H]1O	0.26
CCOC(=O)CCC(=O)O[C@H]1[C@H](O[C@@H]2[C@@H](C)[C@H](O[C@H]3C[C@@](C)(OC)[C@@H](O)[C@H](C)O3)[C@@H](C)C(=O)O[C@H](CC)[C@@](C)(O)[C@H](O)[C@@H](C)C(=O)[C@H](C)C[C@@]2(C)O)O[C@H](C)C[C@@H]1N(C)C	-0.3
C[C@@H]1C[C@H]2[C@@H]3CCC4=CC(=O)C=C[C@]4(C)[C@@]3(F)[C@@H](O)C[C@]2(C)[C@H]1C(=O)CO	-0.17
[H]/N=C(/NC)NCCC[C@H](N)C(=O)O	0.0343
CC1(C)S[C@@H]2[C@H](NC(=O)[C@H](N)c3ccc(O)cc3)C(=O)N2[C@H]1C(=O)O	0.2
O=C(O)COCCN1CCN([C@H](c2ccccc2)c2ccc(Cl)cc2)CC1	0.16
CCN1CCN(c2cc3c(cc2F)c(=O)c(C(=O)O)cn3C2CC2)CC1	-0.26
CN(C)CCOc1ccc(/C(=C(/CCCl)c2ccccc2)c2ccccc2)cc1	-0.0157
CS(=O)(=O)c1ccc(-c2cc(Br)sc2-c2ccc(F)cc2)cc1	-0.44
CN(C)CCN(Cc1ccccc1)c1ccccn1	0.21
CCC(=O)O[C@]1(C(=O)SCF)[C@H](C)C[C@H]2[C@@H]3C[C@H](F)C4=CC(=O)C=C[C@]4(C)[C@@]3(F)[C@@H](O)C[C@@]21C	-0.52
CN(C/C=C/C#CC(C)(C)C)Cc1cccc2ccccc12	0.13

Block 2 — effect on: cell-free assay; method: competition with immobilised ligand; tested at: 1 µM
SMILES: CCS(=O)(=O)c1cc2cc(C[C@@](O)(CC(C)(C)c3ccc(F)cc3C(N)=O)C(F)(F)F)[nH]c2cn1
target	remaining binding [%]
CDK14 (Homo sapiens, UniProt O94921)	100
FGFR4 (Homo sapiens, UniProt P22455)	100
RIPK1 (Homo sapiens, UniProt Q13546)	92
LRRK2 (Homo sapiens, UniProt Q5S007, G2019S)	100
HUNK (Homo sapiens, UniProt P57058)	100
NTRK3 (Homo sapiens, UniProt Q16288)	82
MYLK (Homo sapiens, UniProt Q15746)	93
Tyrosine-protein kinase ABL1, non-phosphorylated (ABL1, Homo sapiens, UniProt P00519, F317L)	90
CAMK2G (Homo sapiens, UniProt Q13555)	77
EPHA7 (Homo sapiens, UniProt Q15375)	94
TNK2 (Homo sapiens, UniProt Q07912)	100
PIK3CD (Homo sapiens, UniProt O00329)	90
PIK3CB (Homo sapiens, UniProt P42338)	87
CSNK1G2 (Homo sapiens, UniProt P78368)	95
TSSK3 (Homo sapiens, UniProt Q96PN8)	96
EPHA4 (Homo sapiens, UniProt P54764)	95
BRAF (Homo sapiens, UniProt P15056, V600E)	100
DAPK1 (Homo sapiens, UniProt P53355)	0
MAP2K6 (Homo sapiens, UniProt P52564)	84
Insulin receptor (INSR, Homo sapiens, UniProt P06213)	86
PIK3C3 (Homo sapiens, UniProt Q8NEB9)	96
Tyrosine-protein kinase JAK1, JH2 (JAK1, Homo sapiens, UniProt P23458)	90
eIF-2-alpha kinase GCN2, C-terminal kinase domain (EIF2AK4, Homo sapiens, UniProt Q9P2K8, S808G)	94
EGFR (Homo sapiens, UniProt P00533, del747-752/P753S)	69

Block 3 — effect on: enzyme activity; action: inhibitor; tested at: 0.5 µM; reference: control
Target: Non-receptor tyrosine-protein kinase TYK2 (TYK2, Homo sapiens, UniProt P29597)
Chain of UniProt P29597 (whole entry, looked up): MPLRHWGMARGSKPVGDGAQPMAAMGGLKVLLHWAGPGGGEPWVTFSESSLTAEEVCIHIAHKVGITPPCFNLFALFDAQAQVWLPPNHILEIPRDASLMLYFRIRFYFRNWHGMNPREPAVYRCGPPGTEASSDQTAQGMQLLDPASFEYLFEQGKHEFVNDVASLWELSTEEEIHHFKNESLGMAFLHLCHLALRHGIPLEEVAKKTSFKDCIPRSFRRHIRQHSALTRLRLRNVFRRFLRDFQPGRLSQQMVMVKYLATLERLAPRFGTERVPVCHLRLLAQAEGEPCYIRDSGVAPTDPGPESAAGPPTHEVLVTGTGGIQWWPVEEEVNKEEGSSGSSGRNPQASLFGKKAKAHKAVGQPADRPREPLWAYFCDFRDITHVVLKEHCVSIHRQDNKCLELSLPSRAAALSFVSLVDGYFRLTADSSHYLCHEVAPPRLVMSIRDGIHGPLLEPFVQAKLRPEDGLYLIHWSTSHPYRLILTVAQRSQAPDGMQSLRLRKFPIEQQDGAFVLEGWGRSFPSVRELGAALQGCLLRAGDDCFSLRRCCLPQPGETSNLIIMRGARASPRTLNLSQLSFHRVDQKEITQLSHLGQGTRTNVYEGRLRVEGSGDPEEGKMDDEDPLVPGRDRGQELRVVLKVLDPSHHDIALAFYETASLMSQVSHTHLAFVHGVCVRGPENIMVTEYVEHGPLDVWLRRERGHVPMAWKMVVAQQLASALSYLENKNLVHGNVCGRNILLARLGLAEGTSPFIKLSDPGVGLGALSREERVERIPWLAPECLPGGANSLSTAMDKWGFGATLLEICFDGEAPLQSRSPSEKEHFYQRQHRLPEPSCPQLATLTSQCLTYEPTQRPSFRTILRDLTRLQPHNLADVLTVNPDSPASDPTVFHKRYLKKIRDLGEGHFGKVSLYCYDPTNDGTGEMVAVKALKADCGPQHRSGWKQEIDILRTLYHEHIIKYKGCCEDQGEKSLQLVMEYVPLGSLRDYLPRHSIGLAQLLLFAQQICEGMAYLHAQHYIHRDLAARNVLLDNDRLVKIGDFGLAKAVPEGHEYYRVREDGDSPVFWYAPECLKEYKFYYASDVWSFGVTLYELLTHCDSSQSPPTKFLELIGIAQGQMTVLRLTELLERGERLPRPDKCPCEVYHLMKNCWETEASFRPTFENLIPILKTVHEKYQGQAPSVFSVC
SMILES	remaining activity [%]
O=C1Nc2ccc(Br)cc2/C1=C/c1cc2c([nH]1)CCCC2	86
O=C1NC(=O)c2c1c1c3ccccc3[nH]c1n1cncc21	85.4
N#Cc1cnc2cnc(NCc3cccnc3)cc2c1Nc1ccc(F)c(Cl)c1	103
CN(C)S(=O)(=O)c1ccc2c(c1)/C(=C/c1cc3c([nH]1)CCCC3)C(=O)N2	11.4
O=C1Nc2ccccc2/C1=C\c1c(Cl)[nH]c2ccccc12	110
Cc1cc(Nc2cc(N3CCN(C)CC3)nc(Sc3ccc(NC(=O)C4CC4)cc3)n2)[nH]n1	67.7
Cc1ccc(S(=O)(=O)/C=C/C#N)cc1	82.8
CCCNC(=O)Nc1ccc(Oc2ncnc3cc(OC)c(OC)cc23)cc1Cl	95.2
O=C(c1cc2cc(O)ccc2[nH]1)c1cc2cc(O)ccc2[nH]1	66.7
CCCCc1c(-c2ccc(OC)cc2)[nH]c2nccnc12	38.8
c1ccc(-c2n[nH]c3c2oc2ccccc23)cc1	89.2
CN1CCN(c2ccc3nc(-c4c(N)c5c(F)cccc5[nH]c4=O)[nH]c3c2)CC1	59.4
O=C1NC(=O)c2c1c1c3ccccc3[nH]c1c1[nH]c3cc(Br)ccc3c21	81.1
c1ccc2c(-c3ccncc3)c[nH]c2c1	101
COc1cccc(-c2cc(=O)c3ccccc3o2)c1N	92.7
COc1ccc2c(c1)c(C1=C(c3c[nH]c4ccccc34)C(=O)NC1=O)cn2CCCN(C)C	126
COc1ccc(COc2ccc(Cc3cnc(N)nc3N)cc2OC)cc1	97.6
O=Nc1c(-c2c(O)[nH]c3cc(Br)ccc23)[nH]c2ccccc12	25.6
O=C1Cc2c([nH]c3ccc(Br)cc23)-c2ccccc2N1	81.7
O=c1cc(N2CCOCC2)oc2c(-c3ccccc3)cccc12	103

Block 4 — tested at: 50 µM
Target: Bromodomain-containing protein 4, BD1 (BRD4, Homo sapiens, UniProt O60885)
Structure (SMILES)	inhibition
Cc1cn(-c2cc(NC(=O)c3ccc(C)c(Nc4nccc(-c5cccnc5)n4)c3)cc(C(F)(F)F)c2)cn1	37.8%
Cc1cc(Nc2cc(CN3CCOCC3)c3nc(C)c(Cc4ccc(Cl)cc4F)n3n2)n[nH]1	18%
C[C@]1(O)C[C@@H](c2nc(-c3ccc4ccc(-c5ccccc5)nc4c3)c3c(N)nccn32)C1	41.5%
Cc1c[nH]c(-c2cnc(NCCNc3ccc(C#N)cn3)nc2-c2ccc(Cl)cc2Cl)n1	26.1%
CN1CCC(CNc2ccc3ncc(-c4cccc(OC(F)(F)F)c4)n3n2)CC1	27.1%
CCc1cnn2c(NCc3ccc[n+]([O-])c3)cc(N3CCCC[C@H]3CCO)nc12	16.9%
CC[C@H](Nc1ncnc2[nH]cnc12)c1nc2cccc(F)c2c(=O)n1-c1ccccc1	-0.75%
C=CCn1c(=O)c2cnc(Nc3ccc(N4CCN(C)CC4)cc3)nc2n1-c1cccc(C(C)(C)O)n1	12.4%
Cc1cc(C(=O)NOCCO)c(Nc2ccc(I)cc2F)n(C)c1=O	10.7%
C=CC(=O)N1CCC[C@@H](n2nc(-c3ccc(Oc4ccccc4)cc3)c3c(N)ncnc32)C1	33.4%
O=c1[nH]ccc2c(S(=O)(=O)N3CCCNCC3)cccc12	11.9%

A few entries again (block 3):
SMILES	remaining activity [%]
CCCNC(=O)Nc1ccc(Oc2ncnc3cc(OC)c(OC)cc23)cc1Cl	95.2
O=C(c1cc2cc(O)ccc2[nH]1)c1cc2cc(O)ccc2[nH]1	66.7
CCCCc1c(-c2ccc(OC)cc2)[nH]c2nccnc12	38.8
c1ccc(-c2n[nH]c3c2oc2ccccc23)cc1	89.2
CN1CCN(c2ccc3nc(-c4c(N)c5c(F)cccc5[nH]c4=O)[nH]c3c2)CC1	59.4
O=C1NC(=O)c2c1c1c3ccccc3[nH]c1c1[nH]c3cc(Br)ccc3c21	81.1
c1ccc2c(-c3ccncc3)c[nH]c2c1	101
COc1cccc(-c2cc(=O)c3ccccc3o2)c1N	92.7
COc1ccc2c(c1)c(C1=C(c3c[nH]c4ccccc34)C(=O)NC1=O)cn2CCCN(C)C	126
COc1ccc(COc2ccc(Cc3cnc(N)nc3N)cc2OC)cc1	97.6
O=Nc1c(-c2c(O)[nH]c3cc(Br)ccc23)[nH]c2ccccc12	25.6
